Measured values of several laboratories.
Lines come from different studies, so protocols differ. Values joined by “and” are separate records of one study, mostly repeats; a detail may differ. ± gives the spread as reported.
Aryl hydrocarbon receptor: Aryl hydrocarbon receptor (Danio rerio, UniProt Q9YGV3)
CHRNA7: Neuronal acetylcholine receptor subunit alpha-7 (CHRNA7, Homo sapiens, UniProt P36544)
UniProt P36544, sequence (whole entry, looked up): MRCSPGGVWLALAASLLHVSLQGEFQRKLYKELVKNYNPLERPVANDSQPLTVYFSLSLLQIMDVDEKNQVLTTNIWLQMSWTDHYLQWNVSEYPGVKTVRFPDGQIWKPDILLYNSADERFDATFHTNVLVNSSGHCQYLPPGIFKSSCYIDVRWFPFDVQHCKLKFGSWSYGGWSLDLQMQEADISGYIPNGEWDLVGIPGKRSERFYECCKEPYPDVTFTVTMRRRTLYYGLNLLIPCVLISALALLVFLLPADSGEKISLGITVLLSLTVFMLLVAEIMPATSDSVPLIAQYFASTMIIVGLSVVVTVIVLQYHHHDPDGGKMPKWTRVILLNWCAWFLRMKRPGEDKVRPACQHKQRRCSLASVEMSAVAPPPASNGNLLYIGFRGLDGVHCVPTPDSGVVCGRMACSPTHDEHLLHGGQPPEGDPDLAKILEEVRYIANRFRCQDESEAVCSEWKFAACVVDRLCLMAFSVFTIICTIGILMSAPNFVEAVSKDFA
PFF0160c E182D: Dihydroorotate dehydrogenase (quinone), mitochondrial (PFF0160c, Plasmodium falciparum, UniProt Q08210, E182D)
ACHE: Acetylcholinesterase (ACHE, Homo sapiens, UniProt P22303)
UniProt A5GZW8, sequence (whole entry, looked up): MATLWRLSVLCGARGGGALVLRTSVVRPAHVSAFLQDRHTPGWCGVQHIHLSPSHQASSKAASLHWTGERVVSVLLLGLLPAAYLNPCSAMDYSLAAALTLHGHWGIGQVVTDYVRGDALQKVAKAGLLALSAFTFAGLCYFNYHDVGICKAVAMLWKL
UniProt Q007T0, sequence (whole entry, looked up): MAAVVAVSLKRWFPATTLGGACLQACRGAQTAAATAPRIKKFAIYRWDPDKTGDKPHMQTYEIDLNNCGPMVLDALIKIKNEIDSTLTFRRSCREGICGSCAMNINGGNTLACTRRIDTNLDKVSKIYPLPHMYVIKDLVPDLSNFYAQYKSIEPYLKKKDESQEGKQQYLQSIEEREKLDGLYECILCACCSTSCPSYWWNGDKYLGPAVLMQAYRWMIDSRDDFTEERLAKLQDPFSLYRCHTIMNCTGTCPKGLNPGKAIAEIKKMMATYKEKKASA
UniProt D0VWV4, sequence (whole entry, looked up): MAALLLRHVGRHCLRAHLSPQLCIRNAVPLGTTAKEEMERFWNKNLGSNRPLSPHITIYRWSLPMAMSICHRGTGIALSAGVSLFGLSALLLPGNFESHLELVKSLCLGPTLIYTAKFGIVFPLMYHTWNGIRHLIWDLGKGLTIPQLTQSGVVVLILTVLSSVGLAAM
UniProt P22303, sequence (whole entry, looked up): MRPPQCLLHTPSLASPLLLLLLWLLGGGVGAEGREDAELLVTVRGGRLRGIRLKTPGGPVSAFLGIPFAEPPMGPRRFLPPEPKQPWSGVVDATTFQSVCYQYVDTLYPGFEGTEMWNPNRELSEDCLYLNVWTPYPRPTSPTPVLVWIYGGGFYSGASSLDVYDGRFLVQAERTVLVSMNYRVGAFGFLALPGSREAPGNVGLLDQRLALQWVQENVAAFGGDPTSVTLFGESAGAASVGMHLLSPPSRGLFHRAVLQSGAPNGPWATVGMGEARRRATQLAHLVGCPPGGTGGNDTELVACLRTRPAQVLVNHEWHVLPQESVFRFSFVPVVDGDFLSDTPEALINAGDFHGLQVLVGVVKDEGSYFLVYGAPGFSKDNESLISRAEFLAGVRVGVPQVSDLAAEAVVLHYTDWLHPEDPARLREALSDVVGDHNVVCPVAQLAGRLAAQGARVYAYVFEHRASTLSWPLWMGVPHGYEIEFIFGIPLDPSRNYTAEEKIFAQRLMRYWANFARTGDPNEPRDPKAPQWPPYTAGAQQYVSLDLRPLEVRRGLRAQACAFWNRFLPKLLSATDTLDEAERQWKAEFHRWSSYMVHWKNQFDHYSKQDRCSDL
UniProt Q15760, sequence (whole entry, looked up): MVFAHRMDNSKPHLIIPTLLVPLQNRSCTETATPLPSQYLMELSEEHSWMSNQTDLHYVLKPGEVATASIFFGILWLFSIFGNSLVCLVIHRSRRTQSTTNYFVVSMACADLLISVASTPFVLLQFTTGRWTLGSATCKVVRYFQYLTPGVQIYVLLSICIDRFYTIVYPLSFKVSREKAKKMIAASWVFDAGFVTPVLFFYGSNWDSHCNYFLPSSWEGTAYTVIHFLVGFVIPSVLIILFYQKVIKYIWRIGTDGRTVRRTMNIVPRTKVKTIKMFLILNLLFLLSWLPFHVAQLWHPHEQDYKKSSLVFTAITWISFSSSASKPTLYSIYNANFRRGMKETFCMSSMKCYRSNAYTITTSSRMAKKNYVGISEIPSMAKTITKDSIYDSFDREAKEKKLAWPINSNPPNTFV
UniProt O94768, sequence (whole entry, looked up): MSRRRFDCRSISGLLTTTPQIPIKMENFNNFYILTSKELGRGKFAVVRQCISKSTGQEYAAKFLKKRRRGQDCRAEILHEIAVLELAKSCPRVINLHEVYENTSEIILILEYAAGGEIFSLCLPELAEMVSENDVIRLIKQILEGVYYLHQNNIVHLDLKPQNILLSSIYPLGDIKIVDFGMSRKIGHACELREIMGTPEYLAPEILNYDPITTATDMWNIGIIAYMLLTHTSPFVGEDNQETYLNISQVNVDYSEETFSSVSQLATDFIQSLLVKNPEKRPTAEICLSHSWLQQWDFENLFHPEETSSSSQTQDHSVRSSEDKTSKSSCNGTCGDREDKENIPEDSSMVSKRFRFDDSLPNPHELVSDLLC
UniProt Q9Y6E0, sequence (whole entry, looked up): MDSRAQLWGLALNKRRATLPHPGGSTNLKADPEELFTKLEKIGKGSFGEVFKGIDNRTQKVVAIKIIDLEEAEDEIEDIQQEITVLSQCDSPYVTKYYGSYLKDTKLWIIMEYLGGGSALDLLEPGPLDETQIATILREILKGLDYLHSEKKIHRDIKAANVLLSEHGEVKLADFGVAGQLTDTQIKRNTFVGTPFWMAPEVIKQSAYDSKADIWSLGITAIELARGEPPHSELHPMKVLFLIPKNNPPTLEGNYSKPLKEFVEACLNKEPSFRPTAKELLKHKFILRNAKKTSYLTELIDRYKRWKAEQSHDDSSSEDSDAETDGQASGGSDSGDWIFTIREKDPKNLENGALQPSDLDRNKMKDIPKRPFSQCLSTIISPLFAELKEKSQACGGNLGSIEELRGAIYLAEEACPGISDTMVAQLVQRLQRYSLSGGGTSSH
UniProt P14091, sequence (whole entry, looked up): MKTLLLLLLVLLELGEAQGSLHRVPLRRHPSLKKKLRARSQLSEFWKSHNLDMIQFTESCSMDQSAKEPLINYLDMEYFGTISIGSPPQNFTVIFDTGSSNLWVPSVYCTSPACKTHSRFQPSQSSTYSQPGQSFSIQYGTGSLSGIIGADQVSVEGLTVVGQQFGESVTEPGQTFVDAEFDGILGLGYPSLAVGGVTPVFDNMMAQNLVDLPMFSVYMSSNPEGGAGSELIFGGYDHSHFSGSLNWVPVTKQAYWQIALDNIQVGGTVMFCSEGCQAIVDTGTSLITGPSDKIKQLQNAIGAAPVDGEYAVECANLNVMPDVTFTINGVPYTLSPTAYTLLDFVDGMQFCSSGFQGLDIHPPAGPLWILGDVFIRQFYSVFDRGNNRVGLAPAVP
UniProt P51531, sequence (whole entry, unmodified, looked up): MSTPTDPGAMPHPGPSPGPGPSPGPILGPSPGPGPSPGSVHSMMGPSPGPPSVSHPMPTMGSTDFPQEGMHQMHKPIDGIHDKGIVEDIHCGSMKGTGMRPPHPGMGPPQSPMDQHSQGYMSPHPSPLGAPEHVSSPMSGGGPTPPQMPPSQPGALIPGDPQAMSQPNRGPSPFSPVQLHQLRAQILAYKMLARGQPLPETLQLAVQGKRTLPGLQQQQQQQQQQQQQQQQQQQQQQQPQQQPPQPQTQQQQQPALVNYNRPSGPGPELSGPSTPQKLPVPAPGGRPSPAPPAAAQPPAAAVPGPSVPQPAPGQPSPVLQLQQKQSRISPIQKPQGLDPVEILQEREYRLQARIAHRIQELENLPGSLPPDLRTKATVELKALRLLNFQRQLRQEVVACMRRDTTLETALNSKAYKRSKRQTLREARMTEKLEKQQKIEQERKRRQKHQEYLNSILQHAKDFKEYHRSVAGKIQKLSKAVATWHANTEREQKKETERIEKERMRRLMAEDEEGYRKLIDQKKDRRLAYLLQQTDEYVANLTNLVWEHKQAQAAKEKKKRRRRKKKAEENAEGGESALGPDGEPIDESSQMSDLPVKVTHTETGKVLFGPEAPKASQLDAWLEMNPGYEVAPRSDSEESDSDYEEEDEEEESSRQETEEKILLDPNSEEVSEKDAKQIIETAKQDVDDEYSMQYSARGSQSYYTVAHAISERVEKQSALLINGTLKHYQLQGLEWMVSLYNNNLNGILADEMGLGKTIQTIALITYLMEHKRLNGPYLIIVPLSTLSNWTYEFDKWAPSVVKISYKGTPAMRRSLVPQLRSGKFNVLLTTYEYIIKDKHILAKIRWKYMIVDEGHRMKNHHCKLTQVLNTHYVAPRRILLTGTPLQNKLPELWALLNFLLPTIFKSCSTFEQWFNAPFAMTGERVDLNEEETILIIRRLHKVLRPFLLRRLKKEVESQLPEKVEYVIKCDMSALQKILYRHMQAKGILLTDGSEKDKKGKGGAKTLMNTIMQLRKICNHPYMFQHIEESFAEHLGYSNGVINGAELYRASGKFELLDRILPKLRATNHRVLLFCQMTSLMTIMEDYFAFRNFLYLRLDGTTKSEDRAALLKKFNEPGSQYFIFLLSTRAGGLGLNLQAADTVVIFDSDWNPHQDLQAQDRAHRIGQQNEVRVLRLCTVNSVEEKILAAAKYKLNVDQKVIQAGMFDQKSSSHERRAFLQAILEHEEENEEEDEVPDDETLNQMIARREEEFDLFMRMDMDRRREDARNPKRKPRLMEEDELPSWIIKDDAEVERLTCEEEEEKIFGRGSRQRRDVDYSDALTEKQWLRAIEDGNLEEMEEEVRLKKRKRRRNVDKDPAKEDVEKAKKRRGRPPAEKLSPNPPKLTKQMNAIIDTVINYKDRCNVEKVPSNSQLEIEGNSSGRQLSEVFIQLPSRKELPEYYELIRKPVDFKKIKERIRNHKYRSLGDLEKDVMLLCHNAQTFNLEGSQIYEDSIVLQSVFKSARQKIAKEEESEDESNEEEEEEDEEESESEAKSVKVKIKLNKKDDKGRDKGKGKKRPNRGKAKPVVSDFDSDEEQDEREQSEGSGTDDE

Under “normalised MST signal”, `O=C(O)Cc1c[nH]cn1` is recorded as 0.674 (Sodium- and chloride-dependent taurine transporter (SLC6A6, Homo sapiens, UniProt P31641, Y138A); binding, microscale thermophoresis; 250 µM, room temperature, together with: 50 nM labelled protein; higher = more binding).
`c1ccc2c3c(ccc2c1)-c1cccc2cccc-3c12` gave a fold change of 13.3 (Aryl hydrocarbon receptor; reporter gene, agonist, luciferase reporter; ZF-4; 123.5 µM; reference: vehicle control).
For `C[C@H]1CN(c2n[nH]c3nc(N[C@H]4CC[C@H](NS(=O)(=O)CCC(F)(F)F)CC4)ncc23)CCO1`, the relative abundance was 1.01 (Serine/threonine-protein kinase 17B (STK17B, Homo sapiens, UniProt O94768); inhibitor, Kinobeads competition profiling; 0.16 µM; reference: vehicle).
`CN(C(=O)n1cnc(-c2ccc[n+]([O-])c2)c1)C1CCCCC1` has an inhibition of -3% (KATP channel, hamster; binding; 10 µM, together with: [3H]glyburide).
`C[N+]1(C)CCN(c2ccccc2)CC1` gave a response of 90% (CHRNA7; net charge, agonist, two-electrode voltage clamp; Xenopus laevis oocytes; 30 µM, with RIC3; reference: acetylcholine 60 µM).
The Hill slope of `CC(C)CC(=O)N[C@H](C(=O)N[C@H](C(=O)N[C@@H](CC(C)C)[C@@H](O)CC(=O)N[C@@H](C)C(=O)N[C@@H](CC(C)C)[C@@H](O)CC(=O)O)C(C)C)C(C)C` is reported as -1.37 (Cathepsin E (CTSE, Homo sapiens, UniProt P14091)).
With `Oc1ccc2ccc3cccc4ccc1c2c34` the fold change was 1.89 (Aryl hydrocarbon receptor; reporter gene, agonist, luciferase reporter; ZF-4; 370.37 µM; reference: vehicle control).
`CN1CCN(c2cc(-c3ccncc3)c(-c3ccc4ccccc4c3)nn2)CC1` has an activation of 12.2% (Lysophosphatidic acid receptor 5 (LPAR5, Homo sapiens, UniProt Q9H1C0); agonist, FLIPR; 12.5 µM).
For `CC(C)[C@@H](O)CC[C@@H](C)[C@H]1CC[C@H]2[C@@H]3CC=C4C[C@@H](O)CC[C@]4(C)[C@H]3CC[C@]12C`, the current response was 120 ± 1.2% (Glutamate NMDA receptor; GRIN1/GRIN2B (GRIN1/GRIN2B, Homo sapiens, UniProt Q05586+Q13224, Q556A); positive allosteric modulator, two-electrode voltage clamp; Xenopus oocytes expressing GluN1-Q556A; 10 µM, 0.02% cremophor, together with: 100 µM glutamate and glycine; reference: without compound).
For `Cn1cc(-c2ccc(-n3ccc(OCc4ccc(Cl)cn4)cc3=O)cn2)cn1`, the IC50 ratio was 0.5 (PFF0160c E182D; enzyme activity, DCIP colorimetric; reference: E182D mutant over wild type).
`COc1ccc2[nH]c3c(c2c1)CCN(C)CC3.Cl` gave a Hill coefficient of 1.8 ± 0.1 (CHRNA7; ion current, inhibitor, two-electrode voltage clamp; Xenopus laevis oocytes; together with: 100 µM acetylcholine).
For `Cl.Cl.O=c1cc(NCCCNCc2scc(I)c2I)[nH]c2ccccc12`, the IC50 ratio was 3.6 (PFF0160c E182D; enzyme activity, DCIP colorimetric; reference: E182D mutant over wild type).
For `C[N+](C)(C)[C@@H](Cc1c[nH]c(=S)[nH]1)C(=O)[O-]`, the binding stoichiometry was 0.773 ± 0.095 (Ergothioneine transport permease/ergothioneine binding protein EgtU, substrate-binding domain (egtU, Helicobacter pylori, UniProt B5Z7I3); ITC; concentration not given, 30 °C, substrate-binding domain).
The selectivity ratio of `Cc1ccc2c(c1)C1(C=C2)CCN(C2Cc3ccccc3CC2O)CC1` (racemic) is reported as 0.74 (Vesicular acetylcholine transporter (Rattus norvegicus, UniProt Q62666); reference: Ki sigma1 over Ki VAChT).
Under “log2 fold change”, `COc1cc(N)c(Cl)cc1C(=O)NC1CN2CCC1CC2` (stereo not drawn) is recorded as 0.211 (Probable G-protein coupled receptor 19 (GPR19, Homo sapiens, UniProt Q15760); β-arrestin recruitment, TANGO luminescence, refers to: GPR19; concentration not given; reference: basal luminescence).
`CC[C@H](C)[C@H](NC(=O)CNC(=O)[C@@H](N)CCCCN)C(=O)N[C@@H](CC(C)C)C(=O)N[C@@H](CCCCN)C(=O)N[C@@H](CCCNC(=N)N)C(=O)N[C@@H](CCC(=O)O)C(=O)N[C@@H](CCCCN)C(=O)N[C@@H](CCCNC(=N)N)C(=O)N[C@@H](CC(C)C)C(=O)N[C@@H](CCCNC(=N)N)C(=O)N[C@@H](CCCNC(=N)N)C(=O)N[C@@H](CCCCN)C(=O)N[C@@H](CC(N)=O)C(=O)N[C@H](C(=O)N[C@@H](Cc1c[nH]cn1)C(=O)N[C@@H](Cc1c[nH]c2ccccc12)C(=O)N1CCC[C@H]1C(=O)N[C@@H](CCC(=O)O)C(=O)N[C@@H](CCC(=O)O)C(=O)NCC(=O)N[C@@H](CCCCN)C(=O)N[C@@H](CC(C)C)C(=O)N[C@@H](CCCNC(=N)N)C(=O)N[C@@H](CCC(=O)O)C(=O)N[C@@H](Cc1ccccc1)C(=O)N[C@@H](Cc1ccccc1)C(=O)N[C@@H](Cc1ccccc1)C(=O)N[C@@H](Cc1ccccc1)C(=O)N[C@@H](CCC(=O)O)C(=O)N[C@@H](CC(C)C)C(=O)N[C@@H](CC(=O)O)C(=O)N[C@@H](CCC(=O)O)C(=O)N[C@@H](C)C(=O)N[C@@H](CCC(=O)O)C(=O)N[C@@H](CCCNC(=N)N)C(=O)N[C@H](C(=O)N[C@@H](CC(N)=O)C(=O)N[C@H](C(=O)O)C(C)C)C(C)C)C(C)C` — result for “log2 fold change”: -7.26 (protein phosphatase 1 complexes; bead binding, competitive inhibitor, inhibitor bead pulldown LC-MS/MS, refers to: URI1; HeLa and HEK293T cells, cell lysate; concentration not given; reference: compound over control).
The IC50 ratio of `COc1ccccc1N1CCN(Cc2c(NC(C)=O)sc(C)c2C)CC1` is reported as 1.6 (PFF0160c E182D; enzyme activity, DCIP colorimetric; reference: E182D mutant over wild type).
Under activity class, `Oc1ccc(Cl)cc1Sc1cc(Cl)ccc1O` is recorded as “inactive” (ACHE; biochemical; concentration not given).
The remaining binding of `COc1ncccc1-c1cnn2ccc(N3CCN(C(=O)OC(C)C)CC3)nc12` is reported as 100% (Ribosomal protein S6 kinase alpha-5, N-terminal kinase domain (RPS6KA5, Homo sapiens, UniProt O75582); KINOMEscan binding; 1 µM; reference: untreated control).
`O=C(c1ccc(Cl)cc1)N1CCN2C(=O)N(OC(=O)N3CCOc4ccccc43)C(=O)C2C1` (stereo not drawn) has a median ratio of 1.1 (Dipeptidyl peptidase 8 (Homo sapiens, UniProt Q6V1X1); enzyme activity, inhibitor, MS-based ABPP; SW-620 in situ; 10 µM, 2 h, 37 °C; reference: compound over DMSO, lower = stronger inhibition).
Under “maximum incorporation rate”, `Cc1cn([C@H]2C[C@H](O)[C@@H](COP(=O)(O)OP(=O)(O)OP(=O)(O)O)O2)c(=O)[nH]c1=O` is recorded as 50 ± 3 s⁻¹ (DNA polymerase I, Klenow fragment (polA, Escherichia coli, UniProt P00582, C907S/D424A/L744C/Y766F); nucleotide incorporation, substrate, single-turnover rapid quench; together with: radiolabelled primer-template DNA).
`COc1ccc(N2C(=O)N(c3c(C)cccc3Cl)Cc3cnc(Nc4ccc(C5CCN(C)CC5)cc4OC)nc32)nc1` has an inhibition of 99% (Mast/stem cell growth factor receptor Kit (KIT, Homo sapiens, UniProt P10721); kinase activity; 0.5 µM).
Under kinase activity, `CCN1CCN(Cc2ccc(Nc3nc4ccc(Oc5ccnc(NC(=O)C6CCN(C)CC6)c5)cc4n3C)cc2C(F)(F)F)CC1` is recorded as “inhibited” (Protein kinase 6 (Plasmodium falciparum, UniProt Q8IDW1); inhibitor, radiometric, refers to: autophosphorylation and MBP phosphorylation; concentration not given).
The EC80 of `Clc1cc2c(cc1Cl)Oc1cc(Cl)c(Cl)cc1O2` is reported as 0.00172 ± 0.00087 µM (Uncharacterized protein (Takifugu rubripes, UniProt Q4JHL2); reporter gene, agonist, dual-luciferase; COS-7; 24 h).
For `COc1cc(Nc2ncc(F)c(Nc3ccc4c(n3)NC(=O)C(C)(C)O4)n2)cc(OC)c1OC`, the inhibition was 0% (Cyclin-dependent kinase 8 (CDK8, Homo sapiens, UniProt P49336); KINOMEscan; 10 µM).
`CC(COc1ccccc1)NC(C)C(O)c1ccc(O)cc1` (stereo not drawn) — result for activity class: “inactive” (ACHE; biochemical; concentration not given).
With `Nc1nc2c(ncn2[C@@H]2O[C@H](COP(=O)(O)OP(=O)(O)O[C@H]3O[C@H](CCO)C(=O)[C@H](O)[C@@H]3O)[C@@H](O)[C@H]2O)c(=O)[nH]1` the Km was 83 ± 30 µM (CDP-sugar C4-reductase HS:53, Campylobacter jejuni; substrate; pH 7.5, 25 °C, no epimerase added, together with: NADPH 300 µM).
For `CC[C@@H](C)[C@@H](NC(=O)[C@@H](Cc1ccc(O)cc1)NC(=O)[C@H]1CCCN1C(=O)[C@@H](CCCNC(=N)N)NC(=O)[C@H](N)Cc1c[nH]cn1)C(=O)N[C@H](C)C(=O)N[C@H](Cc1c[nH]cn1)C(=O)N[C@H](CCCNC(=N)N)C(=O)N[C@H](CCCCNC(=O)c1cccc(S(=O)(=O)F)c1)C(=O)N[C@H](Cc1ccc(O)cc1)C(=O)N[C@H](CO)C(=O)N[C@H](Cc1ccccc1)C(N)=O`, “surface TFRC expression” read 0.58 (Transferrin receptor protein 1 (Tfrc, Mus musculus, UniProt Q62351); flow cytometry; DC2.4; 24 h, pH 7.4, unit not given; reference: 0 h).
The Dmax of `Cc1ncsc1-c1ccc(CNC(=O)[C@@H]2C[C@@H](O)CN2C(=O)[C@@H](NC(=O)C2(F)CC2)C(C)(C)C)c(OCCOc2ccc(CN3CCN(c4cc(-c5ccccc5O)nnc4N)CC3)cc2)c1` is reported as 96% (SWI/SNF-related matrix-associated actin-dependent regulator of chromatin subfamily A member 2 (SMARCA2, Homo sapiens, UniProt P51531); degrader, immunoblot; SMARCA4-mutant lung cancer cells; 96 h, median of twelve cell lines).
`NCCc1c[nH]c2ccccc12` has a Km of 96.3 ± 12.8 µM (NMT from Rhinella marina; 10 min, 30 °C).
With `O=C(Nc1cccc(CN2CCN(C(=O)c3cccc(Cl)c3)CC2)c1)c1ccco1.O=C(O)C(F)(F)F` the IC50 ratio was 2.3 (PFF0160c E182D; enzyme activity, DCIP colorimetric; reference: E182D mutant over wild type).
`Nc1nc2c(ncn2[C@@H]2O[C@@H]3COP(=O)(O)O[C@H]4[C@@H](O)[C@H](n5cnc6c(=O)[nH]c(N)nc65)O[C@@H]4COP(=O)(O)O[C@H]3[C@H]2O)c(=O)[nH]1` has a ΔS of 24.4 cal/mol/K (Cell cycle histidine kinase CckA, R374A; cytoplasmic region (Caulobacter vibrioides, UniProt Q9X688, R374A); binding, ITC; together with: ADP 5 mM).
`[2H]c1c([2H])c([C@]2([2H])CCCN2C(=O)C(C)(C)Oc2ccc3cn[nH]c3c2)c([2H])c([2H])c1C([2H])([2H])[2H]` gave a remaining binding of 88% (Serine/threonine-protein kinase 24 (STK24, Homo sapiens, UniProt Q9Y6E0); KINOMEscan; 1 µM; reference: DMSO control).
With `Clc1cccc(-c2cccc(Cl)c2)c1` the IC25 was 17 µM (Aryl hydrocarbon receptor (AHR, Homo sapiens, UniProt P35869); reporter gene, antagonist; AZ-AHR cells; 24 h, together with: TCDD 4.5 nM).
`COc1ccc(-n2ccnc2SCC(=O)Nc2cc(C)ccc2C)c(OC)c1` has an IC50 ratio of 3.5 (PFF0160c E182D; enzyme activity, DCIP colorimetric; reference: E182D mutant over wild type).
`C=C(CN(C(=O)c1c(C(F)F)nn(C)c1F)C1CC1)c1ccc(Cl)cc1Cl` has a reaction velocity of 0.0211 µM/s and 0.0206 µM/s (SDHD/SDHC/SDHB (Sus scrofa, UniProt A5GZW8+D0VWV4+Q007T0); enzyme activity, inhibitor, DCIP reduction; pig; 0.1 µM, together with: DCIP 120 µM).

A few entries again:
`Nc1nc2c(ncn2[C@@H]2O[C@@H]3COP(=O)(O)O[C@H]4[C@@H](O)[C@H](n5cnc6c(=O)[nH]c(N)nc65)O[C@@H]4COP(=O)(O)O[C@H]3[C@H]2O)c(=O)[nH]1` has a ΔS of 24.4 cal/mol/K (Cell cycle histidine kinase CckA, R374A; cytoplasmic region (Caulobacter vibrioides, UniProt Q9X688, R374A); binding, ITC; together with: ADP 5 mM).
`[2H]c1c([2H])c([C@]2([2H])CCCN2C(=O)C(C)(C)Oc2ccc3cn[nH]c3c2)c([2H])c([2H])c1C([2H])([2H])[2H]` gave a remaining binding of 88% (Serine/threonine-protein kinase 24 (STK24, Homo sapiens, UniProt Q9Y6E0); KINOMEscan; 1 µM; reference: DMSO control).
With `Clc1cccc(-c2cccc(Cl)c2)c1` the IC25 was 17 µM (Aryl hydrocarbon receptor (AHR, Homo sapiens, UniProt P35869); reporter gene, antagonist; AZ-AHR cells; 24 h, together with: TCDD 4.5 nM).
`COc1ccc(-n2ccnc2SCC(=O)Nc2cc(C)ccc2C)c(OC)c1` has an IC50 ratio of 3.5 (PFF0160c E182D; enzyme activity, DCIP colorimetric; reference: E182D mutant over wild type).
